Results of several laboratories.
Each numbered part is a random draw from the data of one study; scales do not carry over between parts. Changes are numbered by the printed parent chain.

Sample 1 — target: CCNB2, cyclin fold, Cln2 fusion (human); method: yeast growth competition, sequencing; matrix: yeast; setting: weak parent motif; baseline: not given; direction: higher = stronger binding
Starting sequence: PPP1R3F docking peptide (human); VAPRRVLFADEAL; partner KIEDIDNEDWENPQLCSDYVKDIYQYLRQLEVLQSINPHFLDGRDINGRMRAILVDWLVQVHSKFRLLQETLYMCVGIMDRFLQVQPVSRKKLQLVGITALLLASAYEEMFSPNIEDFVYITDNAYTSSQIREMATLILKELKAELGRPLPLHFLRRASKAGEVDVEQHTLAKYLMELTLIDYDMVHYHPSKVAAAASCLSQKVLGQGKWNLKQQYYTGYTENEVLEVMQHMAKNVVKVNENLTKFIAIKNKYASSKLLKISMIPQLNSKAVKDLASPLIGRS
Variant | normalised enrichment score
R5K | 0.0308
F8A | -0.175
V6A | 0.0125
R5A L7A | -0.123
V1A | 0.163
R5K F8L | 0.395
D10A | 0.14
P3A | 0.316

Sample 2 — method: protein-binding microarray; form: double-stranded DNA, one strand shown; matrix: in vitro; tested at: 940 nM top; setting: 60-bp whole probe; added: salmon DNA 0.4 mg/ml; baseline: random background probes; direction: higher = stronger binding; all sequences stand within: GCCTAGCAC … GTCTTGATTCGCTTGACGCTGCTG
Target: Interferon regulatory factor 5, full length, phosphomimetic (IRF5, Homo sapiens, UniProt Q13568-2, residues 1-514, S451D/S453D/S456D/S462D)
Strand | fitted relative affinity
GGCGATTTCGGGTATCGAGACGTGCTA | 1.61 z-score
GGTGCTGTTTACATAGTTCTGTGCTAG | -0.192 z-score
GACGGTATCGGACTGGTGACGTGCTAG | 2.56 z-score
TTACGTATCGGTCTCGGTTAGTGCTAG | 8.31 z-score
TTAGATTTCACTTCCGATTAGTGCTAG | 1.97 z-score
GACGGTATCGGACTGGGGCCGTGCTAG | 2.52 z-score
TTAGGACTCGGACTGGGTTAGTGCTAG | -0.497 z-score
TTAGGACTAGGGTATCGGTTAGTGCTA | 1.64 z-score
GTAGATATCAGTATCGATTAGTGCTAG | 4.68 z-score
AGGCTTTTTTTTTTTTTTTTGTGCTAG | 0.754 z-score
TTAGGACTGGACACTGGGTAAGTGCTA | -0.514 z-score
ATAGGTTTCGGGTTTCGGTTAGTGCTA | 10.8 z-score
GACTAACTGGGGTATCGAGACGTGCTA | 1.32 z-score
GACTGTCTCCTACTGCTGACGTGCTAG | 0.386 z-score
TTAGATTTCGGGAGTGGATTAGTGCTA | 1.13 z-score
TTAGGTTTACTTCTCCTTTAGTGCTAG | 0.508 z-score
TTAGGTTCCCTACTGCTTTAGTGCTAG | 0.112 z-score
TCAGTTTTCAGTTTCACACTGTGCTAG | 3.29 z-score
GACGGTCTCCTTATCCTGAGGTGCTAG | 0.226 z-score

Sample 3 — method: DHFR PCA, deep sequencing; matrix: yeast; added: (+)-ABA 0.39 µM; baseline: wild-type fitted maximum; direction: higher = stronger binding
Target: ABI1, truncated, D143A, DHFR fusion (Arabidopsis thaliana)
Setting: methotrexate growth selection, single substitutions
Starting sequence: PYL1, truncated, DHFR fusion (Arabidopsis thaliana); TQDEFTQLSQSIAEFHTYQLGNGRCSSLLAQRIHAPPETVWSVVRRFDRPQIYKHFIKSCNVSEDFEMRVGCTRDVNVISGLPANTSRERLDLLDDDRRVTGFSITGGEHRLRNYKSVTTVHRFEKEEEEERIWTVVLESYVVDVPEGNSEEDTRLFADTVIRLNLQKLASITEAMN
Variant | relative binding score [%]
C25K | -18.4
E129C | 43.2
M68T | 10.9
S80M | 44.1
R132Y | 20.2
V118P | -6.56
T173L | -8.19
E64F | 9.05
K116G | -3.57
S59V | 5.04
I79T | 23.1
D3G | 23.3
G81N | 17.1
L93T | 7.87
E147T | 11.9
L166K | 0.0786
H122C | -5.03
Q31T | -7.68
D96K | -9.61
Q10T | 43.8
P37H | 2.62
S150R | 5.9
R69W | -3.91

Sample 4 — target: MAFK, bZIP domain (human); method: DHFR protein complementation; matrix: yeast; baseline: wild-type JUN-FOS pair; direction: higher = stronger binding
Setting: single substitutions, most at no-binding floor
Starting sequence: JUN, bZIP domain (human); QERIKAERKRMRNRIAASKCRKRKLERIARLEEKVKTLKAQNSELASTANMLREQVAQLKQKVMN; partner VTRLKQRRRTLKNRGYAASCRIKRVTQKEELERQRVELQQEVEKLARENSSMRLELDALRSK
Variant | binding fitness
K39G | -1.49 natural log
V35K | -1.49 natural log
E44K | -1.49 natural log
E44A | -1.47 natural log
E44N | -1.45 natural log
L45P | -1.5 natural log
M51L | -1.53 natural log
M51N | -1.42 natural log
S47F | -1.45 natural log
T48H | -1.5 natural log
S43N | -1.49 natural log
E44L | -1.44 natural log
Q41H | -1.44 natural log
E33P | -1.5 natural log
A46S | -1.52 natural log
Q58S | -1.55 natural log
K36V | -1.49 natural log
E54G | -1.35 natural log
M51H | -1.48 natural log
Q41A | -1.48 natural log

Sample 5 — method: RNA Bind-n-Seq; form: RNA; matrix: in vitro; tested at: 200 nM; setting: whole 134-nt RNA, ends assumed; added: 150 mM KCl; baseline: input library; direction: higher = stronger binding
Target: Fragile X messenger ribonucleoprotein 1, C-terminal low-complexity region (Fmr1, Mus musculus, UniProt P35922)
All sequences stand within: GGGAGUUCUACAGUCCGACGAUC … UGGAAUUCUCGGGUGUCAAGG
Strand | log2 enrichment
CAAGUCCUGUGCUACACAUCGUAUGUACCGAAUCGGGGCCCGGGCCCGGGCCCGGGAAAGUAUUAUGUUACGCCGUUCGGAUCUGCACUU | -0.745
CAAGUCCUGUGCUACACAUCGUAUGUACCGAAUCGGGGCCCGGGGCCCGGGCCCGGAAAGUAUUAUGUUACGCCGUUCGGAUCUGCACUU | -0.828
CACAGACAACACGCACCCACACAGACACAGAGGGAAGGGGUUGGGAUGGGGACAGGGUGCACAGCAGGGCGGGGUAGGACCGCAGCCCCU | 1.17
UGGGAGGUGGAUUUUGUUUAUUUUUUUAGGUCAUUUCCAGGGGUGGGAAUUUUUUUUUAAUAUGUGUCAUGAAUAAAGUUGUUUUUGAAA | 0.246
AGUCCUGUGCUACACAUCGUAUGUACCGAAUCAAAUUUAAACCCAAACCCCCCCAAAAAAGUAUUAUGUUACGCCGUUCGGAUCUGCACU | -0.108
ACCAUGCAGGUGGGCAUCUUUGGGAAGUGGGGCAAGGGGGGGAUAGGGAGGGGGGUAAGACUUUGGGAACAGGUGGUCCCAGGUCGUUUC | 0.94
GUCCUGUGCUACACAUCGUAUGUACCGAAUCGGGGUUUUUGGGUUUUUGGUUUUUGGGGAAAGUAUUAUGUUACGCCGUUCGGAUCUGCA | 0.0202
CCUCAAGUCCUGUGCUACACAUCGUAUGUACCGAAUCGGAGGAGGGGAGGGGAAAGUAUUAUGUUACGCCGUUCGGAUCUGCACUUCCAG | 0.481
UGGCCCUGGUGGCAUGCGGGGAGGAAGAGGUGGCCUCAUGGAUCGUGGUGGUCCCGGUGGAAUGUUCAGAGGUGGCCGUGAUGGAGACAG | -0.0972
